Published values gathered from unrelated publications.
Each numbered part is a random draw from the data of one study; scales do not carry over between parts. Changes are numbered by the printed parent chain.

Sample 1 — technique: competition protein-binding microarray; form: double-stranded DNA, one strand shown; medium: in vitro; tested at: 2 µM; together with: Pho4 competitor, 0.05 µM; direction: higher = stronger binding; shared flanks, not repeated: … GTCTTGATTCGCTTGACGCTGCTG
Target: Centromere-binding protein 1, full length, His-tagged (CBF1, Saccharomyces cerevisiae, UniProt P17106, residues 1-351)
Chain of UniProt P17106 (whole entry, looked up): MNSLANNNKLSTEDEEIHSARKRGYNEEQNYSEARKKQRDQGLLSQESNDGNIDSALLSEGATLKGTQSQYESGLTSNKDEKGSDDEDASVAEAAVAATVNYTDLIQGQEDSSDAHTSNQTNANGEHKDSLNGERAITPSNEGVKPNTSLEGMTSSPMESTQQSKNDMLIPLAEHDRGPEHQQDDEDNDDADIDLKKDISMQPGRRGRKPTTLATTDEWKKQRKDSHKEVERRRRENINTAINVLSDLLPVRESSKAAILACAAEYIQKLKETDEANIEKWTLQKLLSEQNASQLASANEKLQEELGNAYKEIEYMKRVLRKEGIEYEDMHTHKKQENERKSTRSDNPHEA
Setting: whole 60-bp probe, lowest competitor level
Sequence | fluorescence intensity [a.u.]
AAGTACTATCATGGGCGCATGCCAGGTACCTAAGCC | 57.5
CATACCCAACCTTGGACGGTGGGTGAAGATATTTGT | 67.5
CATGCTATGATGCCCACTGTGATATCCAGAGCAAAG | 97.2
CATACCCAACCTTGTCACGCGACTTAAGATATTTGT | 781
AAAGCGGTAATTTGTCACTAAACTTCACATATCTAT | 87.5
GAGCAGTTCTGTAACCAGATCTCTTGTGTTGCTTGG | 71.5
CTTTCCCGATCTTGTCACGGAACTTTAGCACATTTG | 96.3
ATCATCGAGTGAAGTATCGTGACTCGTACATTTGAA | 382

Sample 2 — technique: DHFR PCA, deep sequencing; medium: yeast; together with: (+)-ABA 710 µM; baseline: wild-type fitted maximum; direction: higher = stronger binding
Target: ABI1, truncated, D143A, DHFR fusion (Arabidopsis thaliana)
Setting: methotrexate growth selection, single substitutions
Starting sequence: PYL1, truncated, DHFR fusion (Arabidopsis thaliana); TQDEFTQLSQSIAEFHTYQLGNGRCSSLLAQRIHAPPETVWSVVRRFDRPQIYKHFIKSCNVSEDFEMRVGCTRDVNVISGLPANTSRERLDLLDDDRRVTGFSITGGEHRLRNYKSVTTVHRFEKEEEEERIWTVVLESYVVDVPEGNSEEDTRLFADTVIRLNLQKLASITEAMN
Variant | relative binding score [%]
S117M | 27.4
D92M | 86.7
T17S | 104
E38T | 95.3
R113Y | 98.6
P50T | 19.6
S11F | 92.8
P146D | 46.6

Sample 3 — technique: universal PBM; form: double-stranded DNA, one strand shown; medium: in vitro; tested at: 600 nM; direction: higher = stronger binding
Target: Sal-like protein 4, full length isoform A (SALL4, Homo sapiens, UniProt Q9UJQ4, residues 1-1053)
Chain of UniProt Q9UJQ4 (whole entry, looked up): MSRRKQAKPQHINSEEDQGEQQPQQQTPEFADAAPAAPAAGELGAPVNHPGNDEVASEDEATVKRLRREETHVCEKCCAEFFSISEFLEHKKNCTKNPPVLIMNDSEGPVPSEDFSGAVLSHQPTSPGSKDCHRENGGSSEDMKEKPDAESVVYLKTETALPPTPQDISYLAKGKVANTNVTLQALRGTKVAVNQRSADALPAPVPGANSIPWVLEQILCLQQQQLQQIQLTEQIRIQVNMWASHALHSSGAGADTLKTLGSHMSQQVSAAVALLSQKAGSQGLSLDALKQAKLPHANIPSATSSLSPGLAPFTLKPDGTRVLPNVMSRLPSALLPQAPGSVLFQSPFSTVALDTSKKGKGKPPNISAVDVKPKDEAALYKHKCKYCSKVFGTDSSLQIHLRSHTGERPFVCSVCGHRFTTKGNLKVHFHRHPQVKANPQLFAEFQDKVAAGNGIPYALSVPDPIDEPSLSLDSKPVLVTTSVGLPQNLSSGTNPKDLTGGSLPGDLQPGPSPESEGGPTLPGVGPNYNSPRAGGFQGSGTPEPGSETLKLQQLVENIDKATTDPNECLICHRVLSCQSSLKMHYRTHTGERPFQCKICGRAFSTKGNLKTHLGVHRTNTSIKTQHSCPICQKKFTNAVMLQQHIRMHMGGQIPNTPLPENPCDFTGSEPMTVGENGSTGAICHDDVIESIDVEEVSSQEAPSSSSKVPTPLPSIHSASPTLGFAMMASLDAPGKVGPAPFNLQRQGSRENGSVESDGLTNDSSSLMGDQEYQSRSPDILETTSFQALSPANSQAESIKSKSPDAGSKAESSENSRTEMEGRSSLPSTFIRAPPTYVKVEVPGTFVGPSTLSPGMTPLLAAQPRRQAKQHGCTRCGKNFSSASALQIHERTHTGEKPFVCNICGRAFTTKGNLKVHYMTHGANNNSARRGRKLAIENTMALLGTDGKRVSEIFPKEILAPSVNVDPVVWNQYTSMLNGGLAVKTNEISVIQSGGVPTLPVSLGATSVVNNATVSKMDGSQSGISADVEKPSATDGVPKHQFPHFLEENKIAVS
Setting: 8-mer, flanks averaged, mean of replicates
Sequence | E-score
CATACTGA | 0.148
ATTCTACA | 0.15
AAGCGTCC | -0.231
ATTATGGG | 0.262
AAACGAAT | 0.261
CAGAACGG | -0.152
CGGTCAGC | -0.211
GATCCCGC | -0.262

Further values, each from its own experiment
Starting sequence: viral docking peptide; KGVKRKLFAEDSS; partner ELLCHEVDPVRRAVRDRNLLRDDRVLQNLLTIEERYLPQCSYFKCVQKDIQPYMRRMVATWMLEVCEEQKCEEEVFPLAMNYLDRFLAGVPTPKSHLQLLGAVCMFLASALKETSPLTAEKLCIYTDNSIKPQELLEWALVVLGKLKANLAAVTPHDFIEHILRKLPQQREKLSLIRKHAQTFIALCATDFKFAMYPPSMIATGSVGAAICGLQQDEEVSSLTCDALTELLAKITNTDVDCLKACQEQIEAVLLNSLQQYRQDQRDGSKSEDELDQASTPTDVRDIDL
Variant | target | test | system | setting | scale | endpoint | value
S12Y | CCND2, cyclin fold, Cln2 fusion (human) | yeast growth competition, sequencing | yeast | weak parent motif | baseline: not given, higher = stronger binding | normalised enrichment score | -0.458
